Assay results of several laboratories.
Parts stem from different laboratories: compare values within a part only. Positions count from the first letter of the parent shown.

Study 1
Target: XBP1, bZIP domain (human)
Technique: DHFR protein complementation
Sample: yeast
Setting: single substitutions, most at no-binding floor
Reference: wild-type JUN-FOS pair
Reading: higher = stronger binding
Endpoint: binding fitness
Starting sequence: JUN, bZIP domain (human); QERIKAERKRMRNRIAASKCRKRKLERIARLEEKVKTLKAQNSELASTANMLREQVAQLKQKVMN; partner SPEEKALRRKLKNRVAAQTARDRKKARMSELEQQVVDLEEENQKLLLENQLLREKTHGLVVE
I28Q: -1.07 natural log
T37N: -0.596 natural log
N42L: -1.39 natural log
S43T: -0.586 natural log
S43C: -0.903 natural log
K39C: -1.3 natural log
A29H: -0.852 natural log
R53A: -1.28 natural log
R30A: -0.127 natural log
A29E: -0.938 natural log
R30P: -1.23 natural log
I28S: -1.44 natural log
E44S: -1.11 natural log
L31N: -1.56 natural log
E32A: -1.21 natural log
A49R: -0.163 natural log
K36T: -1.11 natural log
T48W: -1.34 natural log
Q55M: -0.606 natural log
E33H: -0.896 natural log
V56K: -1.53 natural log
Q41M: -0.763 natural log
I28T: -1.12 natural log
E54L: -1.3 natural log
L31Y: -1.53 natural log

Study 2
Target: RNA binding protein fox-1 homolog 2, RRM domain, GST-SBP tag (RBFOX2, Homo sapiens, UniProt O43251-10, residues 100-194)
Technique: RNA Bind-n-Seq
Form: RNA
Sample: in vitro
Tested at: 365 nM
Setting: natural RNA segment, single round, ends assumed
Reference: no-protein control
Reading: higher = stronger binding
Endpoint: RBNS enrichment (R)
Residues (chain): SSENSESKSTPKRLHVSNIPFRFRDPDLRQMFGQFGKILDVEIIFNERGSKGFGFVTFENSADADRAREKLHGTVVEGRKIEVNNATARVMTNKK
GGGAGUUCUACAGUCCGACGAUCGAUCCUCAAGGACCUGUAAUUGUGUGGUAUUUAAAAUUAAAAUAACAUUAUUUUUAUUUUGACUUUUUUUCAAACAGUAAGAAUAAUAUAUCAGCAGCAUGUAUCUGCCAUGGAAUUCUCGGGUGCCAA: 14
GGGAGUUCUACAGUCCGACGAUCAACAUUUUGUAACAUUGUGCUUCCUUGUAGUUUGUAAUGUGAGUUCAAUCAGUAUUUAUGUUGAAAUUUCUAACAUUAAAUCUAGUCUCUAUCCUGUUAAUUUAAUUUUUUGGAAUUCUCGGGUGCCAA: 1.68
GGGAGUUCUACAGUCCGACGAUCCUAUAGGAGGCCAAGUGUUAGCUAUCCAGGGCCCCUCCACUGCUGCAGCCAGUGUGCUCUUGAAUAACAAGCAGGUUAAGGGGCUGGAGGAUCAGAAAGAUACCCCAGCUUGGAAUUCUCGGGUGCCAA: 0.254
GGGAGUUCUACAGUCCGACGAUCUGCUUUAGCUGUAGAGCUGGGUAUACUGUUGAUCCAGCUGUCCGUCAGGGACUUGAUAACCUGAUGUUUGAUGUAGAUCCCUGCUGGGGAGUCCACAACUAUGAAUGUAUUGGAAUUCUCGGGUGCCAA: 0.892
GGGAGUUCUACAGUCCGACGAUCGCCGACACCAGACGUGAUUAGCAGGCGCAGCAAAUUCAAUUUGUUAAAUGAAAUUGUAUUUUGCCCACGGCUGCUUCUGUUUGAUCCCUGGGGACAGAGGGGAGCAAGGGUGGAAUUCUCGGGUGCCAA: 0.448
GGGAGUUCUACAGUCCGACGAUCAGAACCUAAUGAAAGGACCACGUUUUAUUUAUUGUGCUUUUGAUUGAACCACCAUAGACCUAGUAAGUGAGCCCAGUGUGUCCUCCCAUGUAAGAGCCAGGUGUUCAGUGUGGAAUUCUCGGGUGCCAA: 0.331
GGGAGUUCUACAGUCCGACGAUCUGGUAUAUGUCAAUGACGUGGAGUGAAAUUUGCUAUUAGAUCCUGGAGGCAAAUGGGUUGUACAAGGUUUUAUGGCUCCGCGGGGAAUUUAAUUUCCUUUCUGGGCACCUUGGAAUUCUCGGGUGCCAA: 0.655
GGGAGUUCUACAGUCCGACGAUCAGCCAGAUCUUCACCUCUUCUUCCGUACGUGACCGCAAGUCCCUGGAACGAGGCAUCUGGAGCUUCCUACUCUCCAGUUUCUCUGUGGAAAUAAAACAUGACUCUUUGUUUGGAAUUCUCGGGUGCCAA: 0.236

Study 3
Target: CCNB1, cyclin fold, Cln2 fusion (human)
Technique: yeast growth competition, sequencing
Sample: yeast
Setting: weak parent motif
Reference: not given
Reading: higher = stronger binding
Endpoint: normalised enrichment score
Starting sequence: WEE1 docking peptide (human); CTLRQKLIFSPCS
CALRQKLIFSPCS [T2A]: 0.539
CTLRQKLIFSACS [P11A]: 0.258
CTLRQKLIFSPCA [S13A]: 0.518
CTLRQKAIFSPCS [L7A]: 0.214
CTARQKLIFSPCS [L3A]: 0.747
CTLRQKLAFSPCS [I8A]: 0.532
ATLRQKLIFSPCS [C1A]: 0.154

Study 4
Target: ABI1, truncated, D143A, DHFR fusion (Arabidopsis thaliana)
Technique: DHFR PCA, deep sequencing
Sample: yeast
Setting: methotrexate growth selection, single substitutions
With: (+)-ABA 0.032 µM
Reference: wild-type fitted maximum
Reading: higher = stronger binding
Endpoint: relative binding score
Starting sequence: PYL1, truncated, DHFR fusion (Arabidopsis thaliana); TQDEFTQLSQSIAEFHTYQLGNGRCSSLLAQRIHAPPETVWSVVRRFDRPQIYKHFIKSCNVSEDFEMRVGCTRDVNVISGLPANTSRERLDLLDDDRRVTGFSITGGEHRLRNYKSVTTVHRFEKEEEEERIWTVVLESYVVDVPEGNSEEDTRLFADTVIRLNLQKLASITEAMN; partner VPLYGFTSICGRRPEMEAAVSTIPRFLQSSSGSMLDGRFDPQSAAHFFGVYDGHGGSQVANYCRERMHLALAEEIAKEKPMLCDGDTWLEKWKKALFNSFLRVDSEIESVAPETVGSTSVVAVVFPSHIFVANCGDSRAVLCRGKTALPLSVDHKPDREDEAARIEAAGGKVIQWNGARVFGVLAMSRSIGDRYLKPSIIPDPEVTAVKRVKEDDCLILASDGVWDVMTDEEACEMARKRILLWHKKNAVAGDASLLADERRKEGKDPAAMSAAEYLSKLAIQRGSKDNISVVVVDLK
L8M: 6.61%
I12H: 4.24%
Q2V: 60.4%
M68E: -0.178%
E139C: 3.46%
V76D: 2.03%
I52D: 43.2%
R111K: 8.7%
P37I: 1.15%
S80Q: 2.58%
A175T: 12.3%
E109N: 42.2%
Y141G: -5.81%

Study 5
Target: Centromere-binding protein 1, full length, N-terminal tag (CBF1, Saccharomyces cerevisiae, UniProt P17106, residues 1-351)
Chain of UniProt P17106 (whole entry, looked up): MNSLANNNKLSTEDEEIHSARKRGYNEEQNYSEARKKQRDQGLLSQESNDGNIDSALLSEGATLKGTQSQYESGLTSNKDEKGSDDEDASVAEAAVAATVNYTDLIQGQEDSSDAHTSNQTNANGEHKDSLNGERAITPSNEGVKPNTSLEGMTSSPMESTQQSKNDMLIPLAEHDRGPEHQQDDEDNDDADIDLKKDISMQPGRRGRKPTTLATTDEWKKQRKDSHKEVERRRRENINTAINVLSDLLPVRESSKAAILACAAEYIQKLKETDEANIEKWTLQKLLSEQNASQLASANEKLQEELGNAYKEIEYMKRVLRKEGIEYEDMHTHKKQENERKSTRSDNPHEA
Technique: protein-binding microarray
Form: double-stranded DNA, one strand shown
Sample: in vitro
Tested at: 0.8 µM
Setting: whole 60-bp probe, no competitor
Reading: higher = stronger binding
Endpoint: fluorescence intensity
CTAAGGTAGTTGGATCAGCTGAAGTATTTGGGTTTCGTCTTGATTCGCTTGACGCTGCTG: 551 a.u.
GAAACTAGTAGGAATTGCGTGAAGTACTATATATAGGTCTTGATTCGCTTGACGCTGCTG: 524 a.u.
GAATCCTTGGGAGATCACGGATGCATCGAGAAGTAGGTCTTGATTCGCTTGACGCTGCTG: 656 a.u.
GAAGCCGCGGAGTGAGATCACATGTCATATTGATAGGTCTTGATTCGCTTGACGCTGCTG: 3860 a.u.
CTATTCCCGGTTATGCACGAGGTCAATGAGACCTTCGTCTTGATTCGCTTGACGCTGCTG: 800 a.u.
CTAAAAAAAGCAGGGCACATGTCAAACTCTTGGTTCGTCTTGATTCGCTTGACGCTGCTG: 829 a.u.
CTACAGTGGATCACCCACGTCATTTATCCGAAGTTCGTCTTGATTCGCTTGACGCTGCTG: 555 a.u.
CTATCTCGCAGTTGTCACGTGCAATTTGATACATTCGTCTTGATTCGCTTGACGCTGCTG: 12700 a.u.
CTATTGTTTCAACCTCATGACCCCTGTCTTGACTTCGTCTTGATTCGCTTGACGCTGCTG: 666 a.u.
CTACAGTCTTATATGCGCACGCCAGCAAAATCTTTCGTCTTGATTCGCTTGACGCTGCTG: 559 a.u.
CTACCTGCTGGTAATCTCAGCTGAAAGGCTGCCTTCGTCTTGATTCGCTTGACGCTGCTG: 481 a.u.
CTAAAGTCTGGAAGAGAGGTGGTGGAATTTCCATTCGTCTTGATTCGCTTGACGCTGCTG: 482 a.u.
CTAAATATAGTGTGTCACGCATACAATAATTGATTCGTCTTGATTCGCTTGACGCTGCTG: 1310 a.u.
CTAAGACATCTTAGTCAGCTGAGACAAGAAAGGTTCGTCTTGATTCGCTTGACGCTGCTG: 2480 a.u.
GAATTTCATATTCATCAGACATAATGAATTTCATAGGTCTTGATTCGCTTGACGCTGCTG: 519 a.u.
GAAGGCCGAACACAGCACGTGAAAGAACTCTCATAGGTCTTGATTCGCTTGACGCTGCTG: 3570 a.u.

Study 6
Molecule: PhoQ, residues 284 288 289 292 302 303 QWQEDG
Technique: Sort-seq
Refers to: YFP reporter
Sample: E. coli
Setting: PhoQ-PhoP variant library
With: 10 µM Mg2+
Reference: high Mg2+ state
Reading: higher = stronger signaling
Endpoint: fold induction
PhoP, residues 12 14 15 18 19 LHTVL (Escherichia coli, UniProt P23836): 24.7
PhoP, residues 12 14 15 18 19 TQAML (Escherichia coli, UniProt P23836): 8.52
PhoP, residues 12 14 15 18 19 NQCAL (Escherichia coli, UniProt P23836): 15.7

For quick reference, copied from above (study 4):
I12H: 4.24%
Q2V: 60.4%
M68E: -0.178%
E139C: 3.46%
V76D: 2.03%
I52D: 43.2%
R111K: 8.7%
